Measured values collected from several papers.
Each numbered part is a random draw from the data of one study; scales do not carry over between parts. Several values in a cell are separate wells, animals, samples, runs or records.
Sequence of UniProt Q12866 (whole entry, looked up): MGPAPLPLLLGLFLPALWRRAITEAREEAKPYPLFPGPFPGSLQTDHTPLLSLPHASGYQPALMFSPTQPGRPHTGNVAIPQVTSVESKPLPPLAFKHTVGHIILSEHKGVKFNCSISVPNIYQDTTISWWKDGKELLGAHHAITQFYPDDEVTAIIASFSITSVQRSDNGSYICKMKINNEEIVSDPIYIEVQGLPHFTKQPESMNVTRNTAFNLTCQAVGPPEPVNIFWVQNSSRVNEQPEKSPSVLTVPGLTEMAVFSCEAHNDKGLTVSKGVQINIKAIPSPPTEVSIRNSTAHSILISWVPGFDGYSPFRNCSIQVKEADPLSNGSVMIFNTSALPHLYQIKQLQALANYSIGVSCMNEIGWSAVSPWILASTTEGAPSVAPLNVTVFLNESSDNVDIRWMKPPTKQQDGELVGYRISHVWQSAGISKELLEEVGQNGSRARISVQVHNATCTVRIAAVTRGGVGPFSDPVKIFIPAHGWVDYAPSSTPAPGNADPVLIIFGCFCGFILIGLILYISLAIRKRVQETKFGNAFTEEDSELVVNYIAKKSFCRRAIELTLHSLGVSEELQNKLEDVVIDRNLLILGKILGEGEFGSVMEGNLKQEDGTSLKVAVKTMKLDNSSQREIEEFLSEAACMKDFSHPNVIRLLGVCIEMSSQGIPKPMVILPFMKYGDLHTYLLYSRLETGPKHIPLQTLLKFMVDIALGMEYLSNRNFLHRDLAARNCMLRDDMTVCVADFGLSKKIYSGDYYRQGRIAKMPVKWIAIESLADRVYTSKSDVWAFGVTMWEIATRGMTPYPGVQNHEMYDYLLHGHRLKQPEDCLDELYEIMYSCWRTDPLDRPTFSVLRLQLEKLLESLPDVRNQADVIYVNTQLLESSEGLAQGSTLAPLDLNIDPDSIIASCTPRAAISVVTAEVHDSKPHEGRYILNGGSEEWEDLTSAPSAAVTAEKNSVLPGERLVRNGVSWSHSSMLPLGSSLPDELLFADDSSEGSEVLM
Sequence of UniProt Q5S007 (whole entry, looked up): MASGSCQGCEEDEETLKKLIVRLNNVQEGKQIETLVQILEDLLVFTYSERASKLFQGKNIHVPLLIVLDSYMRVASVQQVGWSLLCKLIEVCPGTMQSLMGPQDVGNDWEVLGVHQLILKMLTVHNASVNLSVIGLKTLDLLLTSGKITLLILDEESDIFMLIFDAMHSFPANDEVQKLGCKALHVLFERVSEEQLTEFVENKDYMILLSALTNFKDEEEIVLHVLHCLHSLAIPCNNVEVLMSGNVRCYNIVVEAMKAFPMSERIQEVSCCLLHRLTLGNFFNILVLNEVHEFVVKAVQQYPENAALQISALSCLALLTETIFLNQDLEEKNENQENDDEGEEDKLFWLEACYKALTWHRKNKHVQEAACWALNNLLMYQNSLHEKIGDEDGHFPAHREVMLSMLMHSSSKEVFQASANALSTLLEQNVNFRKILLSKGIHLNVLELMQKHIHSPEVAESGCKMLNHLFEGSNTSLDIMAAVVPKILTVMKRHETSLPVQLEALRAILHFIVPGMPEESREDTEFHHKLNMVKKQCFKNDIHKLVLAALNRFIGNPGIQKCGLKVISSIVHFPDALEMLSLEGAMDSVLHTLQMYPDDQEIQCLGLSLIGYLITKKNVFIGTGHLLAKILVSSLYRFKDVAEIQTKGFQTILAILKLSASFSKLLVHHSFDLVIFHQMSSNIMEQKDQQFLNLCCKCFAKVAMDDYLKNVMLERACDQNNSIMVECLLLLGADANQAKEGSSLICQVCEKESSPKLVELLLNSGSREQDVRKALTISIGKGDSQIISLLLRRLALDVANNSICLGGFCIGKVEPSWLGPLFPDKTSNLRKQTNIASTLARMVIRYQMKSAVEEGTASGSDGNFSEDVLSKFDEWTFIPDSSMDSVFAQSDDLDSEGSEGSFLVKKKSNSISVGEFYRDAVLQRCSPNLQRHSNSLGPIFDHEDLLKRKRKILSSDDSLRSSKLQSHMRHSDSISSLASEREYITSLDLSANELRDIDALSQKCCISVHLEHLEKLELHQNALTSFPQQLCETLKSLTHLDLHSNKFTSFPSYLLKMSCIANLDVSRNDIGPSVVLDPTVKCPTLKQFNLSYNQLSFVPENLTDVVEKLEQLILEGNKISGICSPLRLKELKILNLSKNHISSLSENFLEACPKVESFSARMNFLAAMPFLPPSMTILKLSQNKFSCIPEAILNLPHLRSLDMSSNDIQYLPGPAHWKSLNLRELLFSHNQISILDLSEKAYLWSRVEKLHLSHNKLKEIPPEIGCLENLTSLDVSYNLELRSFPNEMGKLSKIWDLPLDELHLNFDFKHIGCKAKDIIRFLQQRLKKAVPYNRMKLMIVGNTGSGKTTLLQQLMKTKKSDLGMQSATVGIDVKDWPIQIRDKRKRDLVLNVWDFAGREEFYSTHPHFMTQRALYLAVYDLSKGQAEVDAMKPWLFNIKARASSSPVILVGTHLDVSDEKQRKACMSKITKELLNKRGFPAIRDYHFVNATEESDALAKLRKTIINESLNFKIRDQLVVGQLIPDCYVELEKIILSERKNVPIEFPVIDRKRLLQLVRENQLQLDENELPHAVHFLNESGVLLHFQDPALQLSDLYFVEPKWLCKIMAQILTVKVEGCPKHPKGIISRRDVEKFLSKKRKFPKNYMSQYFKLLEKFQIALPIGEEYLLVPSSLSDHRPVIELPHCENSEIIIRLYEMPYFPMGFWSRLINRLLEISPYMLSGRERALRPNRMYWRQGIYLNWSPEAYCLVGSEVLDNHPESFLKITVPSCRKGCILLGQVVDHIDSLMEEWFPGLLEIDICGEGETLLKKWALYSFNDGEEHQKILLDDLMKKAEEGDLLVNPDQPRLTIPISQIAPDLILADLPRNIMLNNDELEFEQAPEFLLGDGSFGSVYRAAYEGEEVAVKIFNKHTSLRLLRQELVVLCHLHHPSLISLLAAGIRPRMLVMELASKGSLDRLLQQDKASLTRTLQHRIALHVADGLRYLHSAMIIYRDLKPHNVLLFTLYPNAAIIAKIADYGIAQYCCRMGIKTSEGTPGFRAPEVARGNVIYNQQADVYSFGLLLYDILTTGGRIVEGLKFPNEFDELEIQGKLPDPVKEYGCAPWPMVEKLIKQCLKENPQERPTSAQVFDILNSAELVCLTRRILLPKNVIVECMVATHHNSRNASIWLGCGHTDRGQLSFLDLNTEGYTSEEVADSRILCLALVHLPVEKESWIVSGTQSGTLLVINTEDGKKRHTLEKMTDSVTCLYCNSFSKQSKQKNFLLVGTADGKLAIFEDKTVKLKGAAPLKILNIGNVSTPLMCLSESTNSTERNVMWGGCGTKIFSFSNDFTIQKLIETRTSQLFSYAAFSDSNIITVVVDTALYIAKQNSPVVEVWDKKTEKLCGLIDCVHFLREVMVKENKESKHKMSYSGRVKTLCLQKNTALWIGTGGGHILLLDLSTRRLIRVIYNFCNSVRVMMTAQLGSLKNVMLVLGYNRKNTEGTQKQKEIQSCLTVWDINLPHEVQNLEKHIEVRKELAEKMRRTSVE
Sequence of UniProt P18825 (whole entry, looked up): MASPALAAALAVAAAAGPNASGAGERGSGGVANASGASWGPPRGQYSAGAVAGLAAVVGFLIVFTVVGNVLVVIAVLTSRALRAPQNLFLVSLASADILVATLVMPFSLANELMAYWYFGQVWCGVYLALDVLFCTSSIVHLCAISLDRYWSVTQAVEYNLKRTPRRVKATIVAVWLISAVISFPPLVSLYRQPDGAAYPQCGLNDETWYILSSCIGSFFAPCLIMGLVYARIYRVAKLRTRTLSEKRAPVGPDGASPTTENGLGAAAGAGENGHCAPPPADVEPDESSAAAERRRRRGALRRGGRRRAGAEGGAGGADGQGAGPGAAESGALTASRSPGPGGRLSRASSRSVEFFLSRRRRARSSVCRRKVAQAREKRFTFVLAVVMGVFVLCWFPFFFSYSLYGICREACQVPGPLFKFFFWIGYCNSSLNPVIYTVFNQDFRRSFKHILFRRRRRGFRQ
Sequence of UniProt P25021 (whole entry, looked up): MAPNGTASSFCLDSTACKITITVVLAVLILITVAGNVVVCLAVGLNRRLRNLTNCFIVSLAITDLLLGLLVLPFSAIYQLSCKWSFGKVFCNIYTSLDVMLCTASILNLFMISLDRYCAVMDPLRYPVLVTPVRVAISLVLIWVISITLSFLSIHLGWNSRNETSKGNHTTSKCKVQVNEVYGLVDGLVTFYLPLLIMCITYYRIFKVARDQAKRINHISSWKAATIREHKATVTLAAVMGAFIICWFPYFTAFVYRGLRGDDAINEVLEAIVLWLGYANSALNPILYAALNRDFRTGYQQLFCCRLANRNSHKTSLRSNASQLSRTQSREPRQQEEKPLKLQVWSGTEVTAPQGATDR
Sequence of UniProt P21728 (whole entry, looked up): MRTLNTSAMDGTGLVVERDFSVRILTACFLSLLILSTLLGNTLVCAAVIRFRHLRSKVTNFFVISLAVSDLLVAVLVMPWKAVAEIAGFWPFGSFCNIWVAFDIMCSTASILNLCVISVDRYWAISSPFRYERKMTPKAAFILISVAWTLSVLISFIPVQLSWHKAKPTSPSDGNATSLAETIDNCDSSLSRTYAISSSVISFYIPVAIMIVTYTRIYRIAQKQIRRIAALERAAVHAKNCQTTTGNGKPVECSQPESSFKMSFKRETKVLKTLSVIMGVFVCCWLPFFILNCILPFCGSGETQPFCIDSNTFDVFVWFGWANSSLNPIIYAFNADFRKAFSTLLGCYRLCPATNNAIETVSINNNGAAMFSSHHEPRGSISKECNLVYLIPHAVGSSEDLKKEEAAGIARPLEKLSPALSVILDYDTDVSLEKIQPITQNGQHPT

Series 1
Species: human
Medium: microsomes or S9
Tested at: 2 µM
Time: 0.5 h
| SMILES | remaining compound |
| --- | --- |
| COc1ccccc1Nc1nc(N)nc(CN(C)Cc2ccco2)n1 | 30.1% |
| COCC1COc2cc3ncnc(Nc4ccc(Br)cc4F)c3cc2O1 (stereo not drawn) | 27.7% |
| CCOC(=O)C(CCC1(Cc2cccs2)C(=O)OC(C)(C)OC1=O)(NC(C)=O)C(=O)OCC | 6.33% |
| Cn1cc(-n2cc(Cc3c(Cl)cccc3Cl)c(=O)[nH]c2=O)cn1 | 49.4% |
| CC(C)CCn1cc(C(=O)N2CCN(c3ccccn3)CC2)c2ccccc2c1=O | 0.545% |

Series 2
SMILES: CCC(=O)N1CCN(c2nc(OC[C@@H]3CCCN3C)nc3c2CCN(c2cccc4cccc(Cl)c24)C3)C[C@@H]1CC#N
Observed: binding
Mode: competitor
Method: NanoBRET
Cell line: HEK293
KRAS G12D: GTPase KRas (KRAS, Homo sapiens, UniProt P01116, G12D)
| target | tested at | normalized BRET |
| --- | --- | --- |
| KRAS G12D | 1.69 nM | 98% and 103% and 98.8% |
| KRAS G12D | 3.7 µM | 95.5% and 102% and 90.3% |
| GTPase KRas (KRAS, Homo sapiens, UniProt P01116, Q61L) | 412 nM | 81.3% and 88% and 87.3% |

Series 3
Compound: C=CC(=O)N1CCC([C@@H]2CCNc3c(C(N)=O)c(-c4ccc(Oc5ccccc5)cc4)nn32)CC1
Observed: enzyme activity
Mode: inhibitor
Tested at: 1 µM
| target | inhibition [%] |
| --- | --- |
| Interferon-induced, double-stranded RNA-activated protein kinase (EIF2AK2, Homo sapiens, UniProt P19525) | 25 |
| Tyrosine-protein kinase Fer (FER, Homo sapiens, UniProt P16591) | 0 |
| Tyrosine-protein kinase Mer (MERTK, Homo sapiens, UniProt Q12866) | 4 |
| Leucine-rich repeat serine/threonine-protein kinase 2 (LRRK2, Homo sapiens, UniProt Q5S007) | 0 |

Series 4
SMILES: c1ccc(Oc2ccc(Nc3c4c(nc5ccccc35)CCC4)cc2)cc1
Method: resazurin
| cell line | tested at | time | notes | cytotoxicity |
| --- | --- | --- | --- | --- |
| HEK293 | 16.66 µM | – | 10% serum | 74% and 79% |
| HepG2 | 16.66 µM | 48 h | – | 27% and 18% |
| HepG2 | 0.0066 µM | 48 h | – | 4% and 5% |
| HEK293 | 0.166 µM | – | 10% serum | 8% |
| J774.1 | 0.00332 µM | 64 h | – | -6% and -3% |

Series 5
Compound: CO[C@@H](C)c1c(Nc2ccc([C@@H](N(C)C(=O)C3CCS(=O)(=O)CC3)C(F)(F)F)cc2)cnc2cc(Cl)nn12
Observed: binding
Method: radioligand binding
Tested at: 10 µM
| target | inhibition [%] |
| --- | --- |
| Beta-3 adrenergic receptor (ADRB3, Homo sapiens, UniProt P13945) | 12.9 |
| 5-hydroxytryptamine receptor 7 (HTR7, Homo sapiens, UniProt P34969) | -27.8 |
| Muscarinic acetylcholine receptor M2 (CHRM2, Homo sapiens, UniProt P08172) | -10.5 |
| Alpha-2C adrenergic receptor (ADRA2C, Homo sapiens, UniProt P18825) | 1.97 |
| Muscarinic acetylcholine receptor M4 (CHRM4, Homo sapiens, UniProt P08173) | 21.1 |
| Alpha-2B adrenergic receptor (ADRA2B, Homo sapiens, UniProt P18089) | 1.55 |
| D(1A) dopamine receptor (DRD1, Homo sapiens, UniProt P21728) | 17.9 |
| Histamine H2 receptor (HRH2, Homo sapiens, UniProt P25021) | 5.46 |
| Histamine H1 receptor (HRH1, Homo sapiens, UniProt P35367) | -9.88 |
| Histamine H4 receptor (HRH4, Homo sapiens, UniProt Q9H3N8) | -8.46 |
| 5-hydroxytryptamine receptor 3A (HTR3A, Homo sapiens, UniProt P46098) | -1.2 |
| Alpha-1B adrenergic receptor (ADRA1B, Homo sapiens, UniProt P35368) | 5.97 |
| Alpha-1D adrenergic receptor (ADRA1D, Homo sapiens, UniProt P25100) | 3.2 |

A few entries again (series 3):
| target | inhibition [%] |
| --- | --- |
| Leucine-rich repeat serine/threonine-protein kinase 2 (LRRK2, Homo sapiens, UniProt Q5S007) | 0 |
| Interferon-induced, double-stranded RNA-activated protein kinase (EIF2AK2, Homo sapiens, UniProt P19525) | 25 |
| Tyrosine-protein kinase Mer (MERTK, Homo sapiens, UniProt Q12866) | 4 |
| Tyrosine-protein kinase Fer (FER, Homo sapiens, UniProt P16591) | 0 |
